# Measurements gathered from unrelated publications.
# A part holds a random share of what one study measured. Changes are numbered by the printed parent chain.

# Sample 1 — method: RNA Bind-n-Seq; molecule type: RNA; sample: in vitro; tested at: 365 nM; baseline: no-protein control; reading: higher = stronger binding
# Target: RNA binding protein fox-1 homolog 2, RRM domain, GST-SBP tag (RBFOX2, Homo sapiens, UniProt O43251-10, residues 100-194)
# Notes: natural RNA segment, single round, ends assumed
# All sequences stand within: GGGAGUUCUACAGUCCGACGAUC … UGGAAUUCUCGGGUGCCAA
# Residues (chain): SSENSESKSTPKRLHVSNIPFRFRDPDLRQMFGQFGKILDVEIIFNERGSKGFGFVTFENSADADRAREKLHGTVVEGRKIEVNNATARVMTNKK
Sequence,RBNS enrichment (R)
UGCAGACACCAAGGGGGAGCAUCCAGUCUUUAAGAGCCAAGUGGGGGCCCCUUUUCCGAAGCCACUUCCAGGCCAAGGCAGUCGCCAGGGCUUCUUGUCCCCACCUUCUG,0.289
GGCUUACUGGGUUUAGAAUGGAAACAACAUUCACUACUGUUCAGUGCAUGCUGGUACAAUCUCUUAGAAACUCCUAAGAUGGUUUGGGAAAAUACAGUGCAAUUAGUGAU,0.759
UCGGAGUGUACAUAAAACAGAAAAAAUCUUCAUGUAUUUUUAUUAAAUAUAACAAUGUCUGAGUUUCACCUAAGAUGUUUUUGUGCCAUAUGCUGGAUAUCCAGGUUCUC,0.612
ACCAAGAUUUCCUCCCUUUCCUGGUGAGUGUUUCCAUUAUUCCGUUAAGGUUUAAUAUGCAUUCAGAUUACUUUUACUGAAUAGUACACCAUAAAGCUUUUGUUAUAUAU,0.415
GUCUGGCAACGCCCACAGUUACCACAACACAGAAAACUGAUCGUGCUAUAAAAUGGACGCUAAACUAUGAAAACAGUGUGACAUUGUUCUCUGUUCUUCCAGAGCCAGUA,0.276
UCUGUCAUGUUUAUUUAUUGGAUUCUCUGCUGCCUGAUCUGUACAUACAUGAUCCCUCGGGUUUUGUUUACAAGGAACCUUGACUGACCAAAAGGCAUUAUAACUCUGAC,0.399
CAGGCAUACUCCUGCUUAGGAUAACCAUUUGCUGGUCUUCAUUCAAUUCUUUCUCUCUUUUUAUUACUAAACAGUUUUACAUAACACUGUUUAUUUAAGAAACAUAUCUC,0.596
AAAGCAAACAGACUUAAGUUUCCUUGUAUUGAAGAUAACCUAUGACUGUAUGUUUUGCAUUCCUAGAAGCAGGUUAACUGUGUUUUUAAAUUGUUAUAACCACACCUUUU,0.356
CUAAGAAGACCACUAGUCCCAUGAAGUCUCACCUUGUUGACUUCCACCAGAACAAAACCUGUUAAUUCAGCUUGACUUCUCAUAUGUGUUCUGUGUUCAAGCUCCUGUGG,0.38
CUUUCCAAAUCCUAAGGAAAAAUGAAGGCAAAACAAGUGUUAUGUCCAUUCAGCCAGGAACACACUCUAGCCUUCCUGACUCUCUUAAACUGUGGACGUCAGGAGGCCGA,0.263
UUUUAUGAAGCCUUCAGGGGGACUCAGUAUUGCUGGCCUUUGUUGUAGCCUGUGGUUCCUUCGGAGUCCUCUCCCACCCUUUUCCAGUAUUUGAAUAAAAAGAUAAAAGA,0.531
CCCAUGAAAGAAUGUGUUUCAGUAUCAGUGCUUUUUUGGUACUUUAACAAGUAUUGUAGGCACGGUGGAUUUUUUUGAAAUACCCAUGUGUCCAAUAGCAAGUUAAGGAA,0.888

# Sample 2 — method: universal PBM; molecule type: double-stranded DNA, one strand shown; sample: in vitro; tested at: not given; reading: higher = stronger binding
# Target: Sal-like protein 4, full length isoform B (SALL4, Homo sapiens, UniProt Q9UJQ4-2, residues 1-616)
# Notes: 8-mer, flanks averaged, mean of replicates
Sequence,E-score
CGCTCAGA,-0.196
TGTTTAAA,0.171
CTCAAAGC,-0.00347
GACTGTGA,-0.0269
AGTTCTGA,0.0571
CAAAGACG,-0.0599
GCTAGCTA,-0.187
ACCTCCCC,-0.244
GAAGGGAA,-0.193
CATAGGGG,-0.153
AGCATGCC,-0.11
GTTACCAA,-0.113

# Sample 3 — method: Sort-seq; refers to: YFP reporter; sample: E. coli; notes: PhoQ-PhoP variant library; added: 10 µM Mg2+; baseline: high Mg2+ state; reading: higher = stronger signaling
# Molecule: PhoQ, residues 284 288 289 292 302 303 SQSLSM
target,fold induction
"PhoP, residues 12 14 15 18 19 GMGLL (Escherichia coli, UniProt P23836)",2.97
"PhoP, residues 12 14 15 18 19 QQAYL (Escherichia coli, UniProt P23836)",12.4
"PhoP, residues 12 14 15 18 19 LFHKL (Escherichia coli, UniProt P23836)",0.864

# Sample 4 — target: CCNE2, cyclin fold, Cln2 fusion (human); method: yeast growth competition, sequencing; sample: yeast; notes: strong parent motif; baseline: not given; reading: higher = stronger binding
# Starting sequence: CDKN1B docking peptide (human); PSACRNLFGPVDH; partner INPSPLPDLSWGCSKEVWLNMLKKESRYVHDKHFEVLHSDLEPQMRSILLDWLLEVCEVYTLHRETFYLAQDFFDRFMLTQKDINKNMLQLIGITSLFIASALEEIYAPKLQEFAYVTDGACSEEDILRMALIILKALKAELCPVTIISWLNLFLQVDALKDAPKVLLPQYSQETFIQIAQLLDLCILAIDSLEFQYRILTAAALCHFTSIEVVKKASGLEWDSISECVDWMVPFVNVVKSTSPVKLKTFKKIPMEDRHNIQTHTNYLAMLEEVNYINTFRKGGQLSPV
Substitution,normalised enrichment score
S2G,0.898
C4P,0.144
F8P,-0.103
D12K,1.1
H13Q,1.46
N6V,3.04
G9T,1.2
C4Q,0.149
A3C,2.43
C4S,0.282
R5A,-0.308
